Published values gathered from unrelated publications.
A part holds a random share of what one study measured.

Sample 1 — method: RNA Bind-n-Seq; form: RNA; matrix: in vitro; tested at: 1 µM; setting: whole 134-nt RNA, ends assumed; together with: 150 mM KCl; reference: input library; direction: higher = stronger binding; quantity: log2 enrichment
Target: Ras GTPase-activating protein-binding protein 1, RRM domain (G3BP1, Homo sapiens, UniProt Q13283)
Chain of UniProt Q13283 (whole entry, looked up): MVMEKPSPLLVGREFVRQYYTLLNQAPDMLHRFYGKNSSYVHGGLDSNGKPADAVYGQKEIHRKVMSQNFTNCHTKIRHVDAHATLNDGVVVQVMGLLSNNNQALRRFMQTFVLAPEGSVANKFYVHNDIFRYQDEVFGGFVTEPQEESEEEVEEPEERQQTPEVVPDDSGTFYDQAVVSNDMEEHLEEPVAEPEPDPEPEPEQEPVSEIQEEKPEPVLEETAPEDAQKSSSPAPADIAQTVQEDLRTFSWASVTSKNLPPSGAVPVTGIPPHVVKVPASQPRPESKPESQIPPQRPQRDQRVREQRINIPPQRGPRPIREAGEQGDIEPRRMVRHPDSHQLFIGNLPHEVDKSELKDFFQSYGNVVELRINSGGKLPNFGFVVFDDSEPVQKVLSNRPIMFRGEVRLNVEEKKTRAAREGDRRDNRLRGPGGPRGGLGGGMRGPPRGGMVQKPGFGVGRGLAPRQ
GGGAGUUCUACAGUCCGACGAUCAGUCCUGUGCUACACAUCGUAUGUACCGAAUCGGCCCCGGGGCCCCGGGGCCCCGGGAAAGUAUUAUGUUACGCCGUUCGGAUCUGCACUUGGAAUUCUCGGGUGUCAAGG: -0.836
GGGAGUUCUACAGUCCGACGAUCAGUCCUGUGCUACACAUCGUAUGUACCGAAUCGGGUUUUUGGGUUUUUGGGAAAGGGAAAGUAUUAUGUUACGCCGUUCGGAUCUGCACUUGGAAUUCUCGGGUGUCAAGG: 0.393
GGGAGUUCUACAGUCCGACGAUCGGUUUCUGGUGAGCUUCAUGGUUGACGCCCGGGGUGGUUCCAUGAGAGGAAGUCGCCACAACGGCCUGCGAGUGGUGAUCCCGCCACGGAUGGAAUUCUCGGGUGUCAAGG: -0.578
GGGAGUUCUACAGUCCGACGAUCCCUGUGCUACACAUCGUAUGUACCGAAUCGGAAAAAAAGGGAAAAAAAGGGAAAAAAAGGAAAGUAUUAUGUUACGCCGUUCGGAUCUGCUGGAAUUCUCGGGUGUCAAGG: 0.0265
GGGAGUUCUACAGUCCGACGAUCAAGUCCUGUGCUACACAUCGUAUGUACCGAAUCGGGUUUUGGGGUUUUGGUUUUGGGAAAGUAUUAUGUUACGCCGUUCGGAUCUGCACUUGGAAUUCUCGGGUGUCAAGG: -0.258
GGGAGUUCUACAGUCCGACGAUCACCAUGCAGGUGGGCAUCUUUGGGAAGUGGGGCAAGGGGGGGAUAGGGAGGGGGGUAACACUUUGGGAACAGGUAGUCCCAGGUCGUUUCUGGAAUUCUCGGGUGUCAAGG: 1.05
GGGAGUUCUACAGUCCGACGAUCAGUCCUGUGCUACACAUCGUAUGUACCGAAUCAAAUUUUUAAAUUUAAAUUUUUAAAAAAGUAUUAUGUUACGCCGUUCGGAUCUGCACUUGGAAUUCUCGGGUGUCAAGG: -0.717
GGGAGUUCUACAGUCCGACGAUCCUCAACGUUGACAGUAAUGAACAAGGCUCCUAUGUAGUGGCCAUGGAAACCUUUACCAACUUAGGACCCAUUGUCGAUAUGUGCGUGGUGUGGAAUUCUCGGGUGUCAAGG: -0.188
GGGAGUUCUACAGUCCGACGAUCUGGUCAUGGGAUGGAGAACCAGUUCUUCCCUUAUAUCUUCACCAUAUGACUAUUGACCCUGUCUUAGGCUGCUCCCAGGCCGUUCCAUUGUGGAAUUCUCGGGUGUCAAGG: 0.0973
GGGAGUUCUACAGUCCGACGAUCUGGAAGUGGCGCUGGCGCCUGAAGAGUUGGAGCUGGAUCCUAUGGCCAUGACCCAGAAGUAUGAGGAGCAUGUGCGGGAGCAGCAGGCUCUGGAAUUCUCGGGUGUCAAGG: -0.1

Sample 2 — method: protein-binding microarray; form: double-stranded DNA, one strand shown; matrix: in vitro; tested at: 250 nM; setting: 60-bp whole probe; together with: salmon DNA 0.4 mg/ml; reference: random background probes; direction: higher = stronger binding; quantity: log fluorescence; constant ends, left off below: GCCTAGCAC … GTCTTGATTCGCTTGACGCTGCTG
Target: Interferon regulatory factor 5, full length, phosphomimetic (IRF5, Homo sapiens, UniProt Q13568-2, residues 1-514, K96S/S451D/S453D/S456D/S462D)
TCAGTTTCGTATCTTCATTGTGTGCTA: 8.17 z-score
GACGGTTTCGGGACTGGGTACGTGCTA: 4.57 z-score
TTAGAACTGAGACTGCATTAGTGCTAG: -0.118 z-score
TTAGGTTTCCTTGTCCTTTAGTGCTAG: 0.648 z-score
GACGAACTGAGTTTCGAGATGTGCTAG: 5.23 z-score
TTAGGTATCGACTTTCGGTAAGTGCTA: 9.73 z-score
ATAGGTATCGACTATCGGTTAGTGCTA: 8.04 z-score
TCATTTCTAATGTTTTTTACTGTGCTA: 1.57 z-score
GACGAAGTGAGTATCGAGACGTGCTAG: 1.74 z-score
GACGGGTTCGACTTTCGGGACGTGCTA: 4.74 z-score
TCATTTTTTTTTTTTCTACTGTGCTAG: 1.65 z-score
GACGGACTGGACTCTGGGGACGTGCTA: -0.522 z-score
GACTGTATCGGTCTCGGGACGTGCTAG: 5.27 z-score
CACGGTCTCGGTCTCGGGACGTGCTAG: 0.0888 z-score
TCACCTTTCACTTTAACACTGTGCTAG: 4.23 z-score
GACGATTTCAGTTTCGAGAGGTGCTAG: 7 z-score
TTAGGTATCCTACTGGTTTAGTGCTAG: 0.145 z-score
TCACTCCTATCTTATGATACTGTGCTA: 0.782 z-score
GACGGACCGGGTCTCGGGACGTGCTAG: -0.538 z-score
CTAGGACTGGACTATCGGTTAGTGCTA: 5.42 z-score
TTAGGTCTGGGGTATCGGTTAGTGCTA: 2.11 z-score

Sample 3 — method: RNA Bind-n-Seq; form: RNA; matrix: in vitro; tested at: 365 nM; reference: no-protein control; direction: higher = stronger binding; quantity: RBNS enrichment (R)
Target: RNA binding protein fox-1 homolog 2, RRM domain, GST-SBP tag (RBFOX2, Homo sapiens, UniProt O43251-10, residues 100-194)
Setting: natural RNA segment, single round, ends assumed
Residues (chain): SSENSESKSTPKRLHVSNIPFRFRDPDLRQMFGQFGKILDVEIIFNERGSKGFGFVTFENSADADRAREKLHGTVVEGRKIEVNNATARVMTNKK
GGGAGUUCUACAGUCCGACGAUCAAUACUAGUCCAAAUUUAAUAUUUGACAGAAUUCGUAUUGCUUGCUAUAACAAGGAUAGUUUAUAGUCUUUCCAGUUAUUUAAUGAAUAAAUGACGUUUAUUAAAAACAUUGGAAUUCUCGGGUGCCAA: 0.644
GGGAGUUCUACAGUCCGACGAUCGGCAGUGUUGUAGUUUCCCUUGAAGGAAAGCCACUAUAAAAUAAUAGCCAAGUGCCAUUUGAUCUUAAGGGGCUUACACGUAUCUCUCCAGCUCAGUCCACUGGAAUUGUUGGAAUUCUCGGGUGCCAA: 0.433
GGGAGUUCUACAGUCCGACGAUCAUUCUUUUGUGUCUGACACUUGUGGUGAGUUGCUUUUGAAAUCUGUUGAGAUUUCCAUGUGAGAACUGAUAAUCAGGCUCUUGAUCUGCUUCCCUAAAUUACUUUUUUAGUGGAAUUCUCGGGUGCCAA: 0.465
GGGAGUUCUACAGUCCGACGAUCUUCCUCUGAAGCACCCUGAAGGGUGCCAUCCUUACAGAGCUAAGUGGAGACGUUUCCAGAUCAGCCCAAGUUUACUAUAGAGACUGGCCCAGGCACUGAAUGUCUAGGACUGGAAUUCUCGGGUGCCAA: 0.245
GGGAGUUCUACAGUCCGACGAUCCUAUAAUGUACAGUUAUUACAGGGCUUCUGAAGAAGGGGGGGCGGGGAGAAGCUUCUCUGAGGGGCUCGCUCUGCUUUUCCUUCACGGUUUUAUUUUUGAUUGUUUUUUCUGGAAUUCUCGGGUGCCAA: 0.378
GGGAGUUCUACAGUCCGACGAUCUUUGUAAAUAUCUCAUCUCCCACUGGAGAGCCCAGGAGCCUAUUCCUGGCAUGGAUGUUCUGUCCACACUUGAGGCUGGGCGGUGUAUCAGACCCUUCAAGCAGCCUGGCUGGAAUUCUCGGGUGCCAA: 0.265
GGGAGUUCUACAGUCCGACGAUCAGGGGGACAGCAUAAGGUCUAUGUAAAACCCUUCCCUCUCUGACCCUCUGUUUUCAAAUCUGUAAAAUGGGCAAUAAGACUAGAUGAUUUGUAUAUAGCCCAAUGCAUCUUGGAAUUCUCGGGUGCCAA: 2.15
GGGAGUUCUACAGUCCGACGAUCAUGAGGCUGUGGUGUCAGGUUUAGGCCUCUCUCAAGUCAGAAAACCCCGGGCUGAGACCUCCACAGACAAGGGCUCCCCAUGCUGGCCAUUGGCAGGGGCCCAAGAAGUUUGGAAUUCUCGGGUGCCAA: 0.228
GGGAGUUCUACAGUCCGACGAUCCUGCGCAGCCUGCUUUGUCCUCCCAUCUCCGUGGACUCUGUGAAAAUGCCAAAGGAAGGAAGCCUCAGGGACAGGCUGCAACUUGGAGCCCAGCGCAUCACUCUCGGCUUUGGAAUUCUCGGGUGCCAA: 0.543
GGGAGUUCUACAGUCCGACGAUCUGUUUUGAAUCUAUAGAUGAGUCAAGGAAGAACUGCCAUCUUAACAGUAUUGGGUCUUCCGAUUUAUAAACAUGGAAUGCCUCUCCAUUUAUUUUGAUCUUUAAUUUCUCUGGAAUUCUCGGGUGCCAA: 2.86
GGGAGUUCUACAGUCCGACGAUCCGCUUACUAGAUGUGAGGAGAGUCUGAAUAUUUUCAGUGAUCUUGGCUGUUUCAAAAAAAUCUAUUGACUUUUCAAUAAAUCAGCUGCAAUCCAUUUAUUUCAUUUACAAUGGAAUUCUCGGGUGCCAA: 0.324
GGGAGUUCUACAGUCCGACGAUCCUGCUGGCUUGUUUAUCAGGGAUAUGGGAGCUGCGGGCAUGACAGCCACAUUCUCCCAGAAGAGACAGCCACAGAUAGACUGGAACUCUCUGGCAUGUGAGUGCAUAUGUUGGAAUUCUCGGGUGCCAA: 16.7

Sample 4 — method: protein-binding microarray; form: hairpin DNA; matrix: in vitro; tested at: not given; reference: not given; direction: higher = stronger binding; quantity: median fluorescence
Target: Cyclic AMP-responsive element-binding protein 1, full length (CREB1, Homo sapiens, UniProt P16220, residues 1-327)
Chain of UniProt P16220 (whole entry, looked up): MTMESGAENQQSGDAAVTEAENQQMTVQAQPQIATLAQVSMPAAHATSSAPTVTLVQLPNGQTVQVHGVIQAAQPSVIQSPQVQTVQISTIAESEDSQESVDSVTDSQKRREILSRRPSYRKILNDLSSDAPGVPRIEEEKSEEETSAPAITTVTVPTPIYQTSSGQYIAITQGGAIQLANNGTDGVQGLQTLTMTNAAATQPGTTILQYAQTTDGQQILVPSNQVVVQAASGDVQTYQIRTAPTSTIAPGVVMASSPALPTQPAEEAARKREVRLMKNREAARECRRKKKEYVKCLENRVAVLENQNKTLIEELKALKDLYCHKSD
Setting: whole hairpin DNA, median over replicate spots
GAGGCCCGCTGACGTCAGCCTCCTGGCTGACGTCAGCGGGCCTCACACTC (5mC at 7): 15800 a.u.
GAGGCCGGATCGCGTCAGCCTCCTGGCTGACGCGATCCGGCCTCACACTC (5mC at 11): 3680 a.u.
GAGGCCGGATGACGACAGCCTCCTGGCTGTCGTCATCCGGCCTCACACTC: 6330 a.u.
GAGGCCGGATGACGCGAGCCTCCTGGCTCGCGTCATCCGGCCTCACACTC: 6320 a.u.
GAGGCCGGCTGACGTCAGCCTCCTGGCTGACGTCAGCCGGCCTCACACTC: 13800 a.u.
GAGGCCGGATGACGCGAGCCTCCTGGCTCGCGTCATCCGGCCTCACACTC (5mC at 15): 10500 a.u.
GAGGCCGGAAGACGTCAGCCTCCTGGCTGACGTCTTCCGGCCTCACACTC: 4530 a.u.
GAGGCCGACGACCGCGTGCCTCCTGGCACGCGGTCGTCGGCCTCACACTC (5mC at 9 13 15 29 35): 2840 a.u.
GAGGCCGGCTGAGGTCAGCCTCCTGGCTGACCTCAGCCGGCCTCACACTC (5mC at 32): 2490 a.u.
GAGGCCGACGCGGTCGTGCCTCCTGGCACGACCGCGTCGGCCTCACACTC (5mC at 9 15 29 33 35): 2840 a.u.
GAGGCCGGATCGCGTCAGCCTCCTGGCTGACGCGATCCGGCCTCACACTC (5mC at 33): 4980 a.u.
GAGGCCGGCTGACATCAGCCTCCTGGCTGATGTCAGCCGGCCTCACACTC: 3730 a.u.
GAGGCCGGCTCGCGTCAGCCTCCTGGCTGACGCGAGCCGGCCTCACACTC: 3590 a.u.
GAGGCCGCCTGACGTCAGCCTCCTGGCTGACGTCAGGCGGCCTCACACTC (5mC at 8): 10500 a.u.

Excerpt of the above (sample 2):
CACGGTCTCGGTCTCGGGACGTGCTAG: 0.0888 z-score
TCACCTTTCACTTTAACACTGTGCTAG: 4.23 z-score
GACGATTTCAGTTTCGAGAGGTGCTAG: 7 z-score
TTAGGTATCCTACTGGTTTAGTGCTAG: 0.145 z-score
TCACTCCTATCTTATGATACTGTGCTA: 0.782 z-score
GACGGACCGGGTCTCGGGACGTGCTAG: -0.538 z-score
CTAGGACTGGACTATCGGTTAGTGCTA: 5.42 z-score
